Measured values of several laboratories.
Numbered parts are unrelated; each lists some results of a single study.

Sample 1
Target: Sal-like protein 4, full length isoform A (SALL4, Homo sapiens, UniProt Q9UJQ4, residues 1-1053)
UniProt Q9UJQ4, sequence (whole entry, looked up): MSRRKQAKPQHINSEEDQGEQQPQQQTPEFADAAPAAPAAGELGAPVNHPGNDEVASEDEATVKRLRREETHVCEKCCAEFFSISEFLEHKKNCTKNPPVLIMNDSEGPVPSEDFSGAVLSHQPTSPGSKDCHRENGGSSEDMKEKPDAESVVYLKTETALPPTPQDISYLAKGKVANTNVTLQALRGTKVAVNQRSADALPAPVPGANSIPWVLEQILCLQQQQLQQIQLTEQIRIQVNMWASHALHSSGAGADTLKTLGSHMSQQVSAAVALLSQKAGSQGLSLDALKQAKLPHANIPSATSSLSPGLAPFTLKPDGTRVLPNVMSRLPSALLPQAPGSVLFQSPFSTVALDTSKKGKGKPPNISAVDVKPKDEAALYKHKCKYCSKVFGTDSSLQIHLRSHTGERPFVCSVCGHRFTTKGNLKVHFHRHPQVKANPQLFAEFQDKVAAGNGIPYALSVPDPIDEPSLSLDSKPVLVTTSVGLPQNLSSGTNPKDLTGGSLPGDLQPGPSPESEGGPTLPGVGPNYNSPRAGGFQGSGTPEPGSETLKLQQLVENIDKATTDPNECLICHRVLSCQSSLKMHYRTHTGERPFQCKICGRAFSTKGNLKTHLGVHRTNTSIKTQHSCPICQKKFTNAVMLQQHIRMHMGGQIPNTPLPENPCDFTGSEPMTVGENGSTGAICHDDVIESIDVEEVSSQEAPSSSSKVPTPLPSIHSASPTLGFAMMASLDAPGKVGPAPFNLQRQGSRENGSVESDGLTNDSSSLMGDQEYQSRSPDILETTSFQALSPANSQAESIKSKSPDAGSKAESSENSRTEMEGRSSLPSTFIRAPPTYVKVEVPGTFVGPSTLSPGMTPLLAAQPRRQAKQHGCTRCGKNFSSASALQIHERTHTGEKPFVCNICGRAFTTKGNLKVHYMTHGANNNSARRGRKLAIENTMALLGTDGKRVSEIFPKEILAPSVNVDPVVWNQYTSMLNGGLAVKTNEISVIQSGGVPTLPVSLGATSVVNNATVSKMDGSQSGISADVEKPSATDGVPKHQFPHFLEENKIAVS
Method: universal PBM
Form: double-stranded DNA, one strand shown
Matrix: in vitro
Concentration: 600 nM
Notes: 8-mer, flanks averaged, mean of replicates
Direction: higher = stronger binding
Oligonucleotide	E-score
AGCTAACA	-0.028
AAACATTC	0.135
AGTCACCA	-0.0848
CGTATCAC	0.0137
AGTGTACC	-0.134
CAAGACTG	0.101
CATCACCG	-0.14
ACCGTCCG	-0.241
CTGATGGA	-0.0851
ATGCATTC	0.188
CTCGGTTA	-0.0929
GCTGGCCA	-0.242
GTACCTAA	0.0313

Sample 2
Target: Protein C-ets-1 (ETS1, Homo sapiens, UniProt P14921, residues 1-441, full length assumed)
Method: protein-binding microarray
Form: double-stranded DNA, one strand shown
Matrix: in vitro
Concentration: not given
Notes: k-mer, scored over probes, only values ≥0.25
Direction: higher = stronger binding
Residues (chain): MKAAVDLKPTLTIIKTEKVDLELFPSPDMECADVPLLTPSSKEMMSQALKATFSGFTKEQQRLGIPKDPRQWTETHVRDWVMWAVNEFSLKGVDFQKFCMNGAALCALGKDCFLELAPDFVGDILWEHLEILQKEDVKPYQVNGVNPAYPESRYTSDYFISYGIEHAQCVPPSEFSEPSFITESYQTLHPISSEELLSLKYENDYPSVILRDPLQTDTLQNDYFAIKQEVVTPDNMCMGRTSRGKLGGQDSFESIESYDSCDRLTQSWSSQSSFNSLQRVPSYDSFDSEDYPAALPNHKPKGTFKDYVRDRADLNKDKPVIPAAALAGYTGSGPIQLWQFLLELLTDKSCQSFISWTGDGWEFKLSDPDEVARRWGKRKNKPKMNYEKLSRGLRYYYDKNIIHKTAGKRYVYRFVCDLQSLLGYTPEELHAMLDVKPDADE
Oligonucleotide	E-score
CAGGATGA	0.395
ACTTCCTC	0.455
ACGCGGAA	0.368
TCCGGCAA	0.386
CTTCCCCA	0.304
CCCCGGAA	0.469
CCATTTCC	0.447
AATTCCGG	0.426
GACCCGGA	0.324
AACTTCCT	0.478
GACCTTCC	0.264
ATACACCG	0.26
ATTTCCAC	0.285

Sample 3
Target: Histone acetyltransferase KAT6A, winged helix 1, GST fusion (KAT6A, Homo sapiens, UniProt Q92794, residues 1-85)
Method: protein binding microarray
Form: double-stranded DNA, one strand shown
Matrix: in vitro
Concentration: not given
Notes: 8-mer, flanks averaged, mean of 2 arrays, mostly near background
Reference: not given
Direction: higher = stronger binding
Construct (chain): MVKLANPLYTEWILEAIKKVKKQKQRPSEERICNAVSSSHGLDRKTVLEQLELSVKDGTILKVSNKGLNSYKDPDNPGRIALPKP
Oligonucleotide	E-score
ACGGACGT	0.171
AGCTAAAA	-0.117
GCCCTCAA	-0.0366
GATTCGAC	-0.243
AGGCCGCG	0.373
AGGTAAAG	-0.169
CTTCCCGC	0.334
ATGACAAG	-0.151
ACCCGGAT	0.0628
GGTTCAGA	-0.21

Mixed results
Molecule	target	assay	test system	conditions	scale	endpoint	result
PhoQ, residues 284 288 289 292 302 303 SLSVQF	PhoP, residues 12 14 15 18 19 TQCLL (Escherichia coli, UniProt P23836)	Sort-seq, measured: YFP reporter	E. coli	PhoQ-PhoP variant library, with: 10 µM Mg2+	reference: high Mg2+ state, higher = stronger signaling	fold induction	6.8

Some of these lines once more (sample 2):
Oligonucleotide	E-score
AATTCCGG	0.426
TCCGGCAA	0.386
ACGCGGAA	0.368
ATTTCCAC	0.285
CCATTTCC	0.447
ATACACCG	0.26
